Earlier results as cited in several papers.
Lines come from different studies, so protocols differ. “And” joins repeats or separate records; there may be more than shown. Numbers after ± are the reported error.
Sequence of UniProt P21728 (whole entry, looked up): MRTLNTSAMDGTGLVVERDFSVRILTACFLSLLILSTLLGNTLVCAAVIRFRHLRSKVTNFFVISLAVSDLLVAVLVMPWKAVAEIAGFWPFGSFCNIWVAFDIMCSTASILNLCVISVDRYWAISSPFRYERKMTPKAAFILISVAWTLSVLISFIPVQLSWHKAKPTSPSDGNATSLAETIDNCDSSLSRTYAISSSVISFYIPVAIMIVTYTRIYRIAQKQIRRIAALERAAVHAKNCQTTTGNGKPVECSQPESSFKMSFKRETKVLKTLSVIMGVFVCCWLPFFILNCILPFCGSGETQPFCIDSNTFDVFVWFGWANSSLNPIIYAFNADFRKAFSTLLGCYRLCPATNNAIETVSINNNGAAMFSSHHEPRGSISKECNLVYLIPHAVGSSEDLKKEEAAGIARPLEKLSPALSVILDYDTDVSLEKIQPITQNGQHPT
Sequence of UniProt P08913 (whole entry, looked up): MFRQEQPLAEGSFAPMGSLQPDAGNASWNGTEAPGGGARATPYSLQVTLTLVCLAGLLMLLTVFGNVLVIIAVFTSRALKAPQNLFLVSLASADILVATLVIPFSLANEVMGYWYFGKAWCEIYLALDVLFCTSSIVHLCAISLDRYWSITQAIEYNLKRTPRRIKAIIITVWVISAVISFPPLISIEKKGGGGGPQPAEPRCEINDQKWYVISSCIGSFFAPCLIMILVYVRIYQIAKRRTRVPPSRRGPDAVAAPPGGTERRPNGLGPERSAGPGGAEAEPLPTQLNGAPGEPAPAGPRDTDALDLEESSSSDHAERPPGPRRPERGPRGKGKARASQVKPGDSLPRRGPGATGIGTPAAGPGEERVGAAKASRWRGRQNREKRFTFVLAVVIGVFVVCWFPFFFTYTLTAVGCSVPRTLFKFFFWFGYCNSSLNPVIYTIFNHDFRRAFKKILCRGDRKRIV

`O=C1O[C@@H]2[C@@H](OC(=O)c3cc(O)c(O)c(O)c3-c3c1cc(O)c(O)c3O)[C@H](O)O[C@@H]1COC(=O)c3cc(O)c(O)c(O)c3-c3c(O)c(O)c4oc(=O)c5c(c(O)c(O)c6oc(=O)c3c4c65)-c3c(cc(O)c(O)c3O)C(=O)O[C@@H]21` — result for toxicity: “not toxic” (rat; oral, 6 % in diet, 37 days).
`CN[C@H](CC(C)C)C(=O)N[C@H]1C(=O)N[C@@H](CC(N)=O)C(=O)N[C@H]2C(=O)N[C@H]3C(=O)N[C@H](C(=O)N[C@H](C(=O)O)c4cc(O)cc(O)c4-c4cc3ccc4O)[C@H](O)c3ccc(c(Cl)c3)Oc3cc2cc(c3O[C@@H]2O[C@H](CO)[C@@H](O)[C@H](O)[C@H]2O[C@H]2C[C@](C)(N)[C@H](O)[C@H](C)O2)Oc2ccc(cc2Cl)[C@H]1O`: “volume of distribution” 0.83 L/kg (underweight adults; dose not given, weight below 80% of ideal).
`CCCCCOc1ccc(-c2cc(-c3ccc(C(=O)N[C@H]4C[C@@H](O)[C@@H](O)NC(=O)[C@@H]5[C@@H](O)[C@@H](C)CN5C(=O)[C@H]([C@H](O)CC(N)=O)NC(=O)[C@H]([C@H](O)[C@@H](O)c5ccc(O)c(OS(=O)(=O)O)c5)NC(=O)[C@@H]5C[C@@H](O)CN5C(=O)[C@H]([C@@H](C)O)NC4=O)cc3)no2)cc1` gave a clearance of 1170 mL/h (adults with invasive candidiasis; 100 mg daily, steady state).
`CN[C@@](C)(C[18F])C(=O)O` has a brain uptake of 0.05 ± 0.02 %ID/g (rat (orthotopic brain tumour); 60 min).
`CC(C)(c1ccc(O)cc1)c1ccc(O)cc1` gave a dose-normalized AUC(0-inf) of ~34 (nmol·h/mL)/(mmol/kg) and 33.7 (nmol·h/mL)/(mmol/kg) (item: free compound; rhesus monkey female, plasma; oral, 0.4 mg/kg).
For `phosphate`, the pKa was 6.5.
For `CN(C(=O)n1cnc(-c2ccc[n+]([O-])c2)c1)C1CCCCC1`, “parent share of plasma AUC” read > 90% (plasma; oral, concentration not given).
For `O=C(O)C(F)(F)C(F)(F)C(F)(F)C(F)(F)C(F)(F)C(F)(F)C(F)(F)F`, “renal clearance fraction” read 50 to 80% (rat; baseline: renal over total clearance).
`CNC(=C[N+](=O)[O-])NCCSCc1ccc(CN(C)C)o1` has a Cmax of 2120 nM (human, plasma; concentration not given, median of reported values).
For `CN[C@H]1C(=O)N[C@@H]2Cc3ccc(cc3)Oc3cc4cc(c3O[C@@H]3O[C@H](C(=O)O)[C@@H](O)[C@H](O)[C@H]3NC(=O)CCCCCCCCC(C)C)Oc3ccc(cc3Cl)[C@@H](O)[C@@H]3NC(=O)[C@H](NC(=O)[C@@H]4NC(=O)[C@@H](NC2=O)c2cc(cc(O)c2Cl)Oc2cc1ccc2O)c1ccc(O)c(c1)-c1c(O[C@H]2O[C@H](CO)[C@@H](O)[C@H](O)[C@@H]2O)cc(O)cc1[C@@H](C(=O)NCCCN(C)C)NC3=O`, the terminal half-life was 346 h (healthy humans; 1000 mg single dose, mean).
`CC1=C(/C=C/C(C)=C/C=C/C(C)=C/C(=O)Nc2ccc(O)cc2)C(C)(C)CCC1` has a plasma concentration of 5000 to 7000 nM (human adults; 1800 mg/m2 per day).
`CCCC(CCC)C(=O)O` — result for “therapeutic plasma concentration”: 50 to 150 µg/mL (human, plasma; total concentration, therapeutic range).
Under “highest tolerated dose”, `COc1cc(N2CCC(N3CCN(C)CC3)CC2)ccc1Nc1ncc(Cl)c(Nc2ccccc2P(C)(C)=O)n1` is recorded as 240 mg/day (patients with cancer).
For `Cn1c(=O)c2[nH]cnc2n(C)c1=O`, the aqueous solubility was 0.83 log mg/mL (water; hydrate).
`CN[C@H]1CC[C@@H](c2ccc(Cl)c(Cl)c2)c2ccccc21` gave a QTc interval of 525 ms (human; 2250 mg, day 1 after admission, added: diazepam 200 mg and temazepam 400 mg).
The NOAEL of `Cc1nc2cccc(OCC(C)(C)C(=O)NC(C)C)c2c(N)c1C(=O)O` is reported as 1000 mg/kg/day (pregnant rat; oral, maternal toxicity, gestation days 6 to 20, highest dose tested).
Under “surface partition coefficient”, `CCCCCCCCCCCC[N+](C)(C)C.[Br-]` is recorded as 5.5e-07 m (air-water interface).
`CC(C)(C)C(O)/C=C/c1ccc2c(c1)OCO2` (stereo not shown): “therapeutic plasma concentration” 8 to 16 µg/mL (human, plasma; total concentration, therapeutic range).
For `C=CCN(CC=C)CCc1c[nH]c2ccccc12`, the Ki was 124 nM (Alpha-2A adrenergic receptor (ADRA2A, Homo sapiens, UniProt P08913); binding; cloned human receptor; added: [3H]rauwolscine).
`C[C@@H]1COC(Nc2ccc3ncnc(Nc4ccc(OCc5nccs5)c(Cl)c4)c3c2)=N1` — result for “maximum tolerated dose”: 500 mg (human; continuous twice daily, added: docetaxel).
For `C[C@@H]1O[C@@H](O[C@H]2[C@H](Oc3cc(O)c4c(c3)O[C@H](c3ccc(O)cc3)CC4=O)O[C@H](CO)[C@@H](O)[C@@H]2O)[C@H](O)[C@H](O)[C@H]1O`, the NOAEL was > 1250 mg/kg/day (rat; oral).
`CCCCCCCCCCCCCCCC(=O)NCCCC[C@H](NC(=O)[C@H](CCCCN)NC(=O)[C@H](CCCCN)NC(=O)[C@@H]1CCCN1C(=O)CNC(=O)[C@H](CC(C)C)NC(=O)[C@H](CC(C)C)NC(=O)[C@H](Cc1ccc(O)cc1)NC(=O)CNC(=O)[C@H](C)NC(=O)[C@H](CO)NC(=O)[C@H](CC(N)=O)NC(=O)[C@H](CC(C)C)NC(=O)[C@@H](NC(=O)[C@H](Cc1c[nH]c2ccccc12)NC(=O)CNC)[C@@H](C)O)C(=O)N[C@@H](CCCCN)C(N)=O` — result for “HPLC retention time”: 25.84 ± 0.1 min (reversed-phase HPLC diphenyl column; water/acetonitrile gradient with TFA).
`CC(=O)N[C@@H](CCONC(=N)N)C(N)=O` — result for “fraction in aqueous layer”: 85.4 ± 0.6% (octanol-water; added: sodium dodecanoate 2.5 equiv).
`Cc1ccc(OCC(=O)N(Cc2cccs2)c2ccn[nH]2)cc1` has an NOAEL of 1000 mg/kg/day (pregnant Crl:CD(SD) rats; oral gavage).
`CC[C@H](C)[C@H](NC(=O)[C@H](CCCCN)NC(=O)[C@H](CCCCN)NC(=O)[C@H](Cc1c[nH]cn1)NC(=O)[C@H](CC(C)C)NC(=O)[C@H](CCCCN)NC(=O)[C@H](Cc1ccccc1)NS(=O)(=O)c1ccc(C)cc1)C(=O)N[C@@H](CC(C)C)C(=O)N[C@@H](CCCCN)C(=O)N[C@H](C(=O)N[C@@H](CC(C)C)C(N)=O)C(C)C` gave a hemolysis of 4 ± 1.3% (horse erythrocytes 5 % v/v; 150 µM).
For `Cc1cnc2ccc3c(nc(N(O)[C@@H]4O[C@H](C(=O)O)[C@@H](O)[C@H](O)[C@H]4O)n3C)c2n1`, “urinary excretion of MeIQx metabolite” read 9.4 ± 3% (GC-MS, item: 2-hydroxy-3,8-dimethylimidazo[4,5-f]quinoxaline; human; concentration not given; baseline: dose).
`CC1CO1` (stereo not shown) gave a half-life of 16 h (spontaneous hydrolysis; potassium phosphate buffer; pH 7.4, 37 °C).
Under “maximum whole-body concentration”, `O=C(O)C(F)(F)C(F)(F)C(F)(F)C(F)(F)C(F)(F)C(F)(F)C(F)(F)C(F)(F)C(F)(F)F` is recorded as 0.78 ng/g (juvenile Chinook salmon, whole body wet weight; concentration not given, field-collected).
`CCC(=O)N1CCC(NC(=O)Nc2ccc(OC(F)(F)F)cc2)CC1` has a Cmax of 200 to 1500 nM (mouse, blood; drinking water, 0.02 to 0.2 mg/kg, 8 to 12 days).
`CC(=O)[O][Pt]([NH2])([Cl])([Cl])([NH]C1CCCCC1)[O]C(C)=O` gave a bioavailability of 15 to 20% (rats, plasma ultrafiltrate).
The TD50 of `CC(=O)O[C@H]1Cc2ccccc2N(C(N)=O)c2ccccc21` is reported as 314 mg/kg (motor impairment, rotarod test; mouse; 15 rpm for 3 min).
The Cmax of `CC1=C(/C=C/C(C)=C/C=C/C(C)=C/C(=O)O)C(C)(C)CCC1` is reported as ~1000 nM (rat, plasma; concentration not given, at LOAEL).
`Cc1cc2c(C(C)C)c(O)c(O)c(C=O)c2c(O)c1-c1c(C)cc2c(C(C)C)c(O)c(O)c(C=O)c2c1O` gave a Cmax of 1990 nM (plasma; concentration not given).
`CCOc1ccc2cc(-c3nn(CC4CCN(C)CC4)c4ncnc(N)c34)ccc2n1` gave a plasma concentration of > 300000 nM (mouse; 50 mg/kg, 5 days, accumulated).
The Ki of `C=CCN(CC=C)CCc1c[nH]c2ccc(OC)cc12` is reported as > 10000 nM (D(1A) dopamine receptor (DRD1, Homo sapiens, UniProt P21728)).
Under “maximum tolerated dose”, `CC(C)[C@H](C(=O)Nc1ccc(C(=O)NO)cc1)c1ccccc1` is recorded as 40 mg (patients with hematologic malignancies; three times weekly).
The hemolysis of `CCCC(=O)NCCCC[C@H](NC(=O)[C@@H](NC(=O)[C@H](CCCCN)NC(=O)[C@H](CCCCN)NC(=O)[C@@H](Cc1ccccc1)NC(=O)[C@H](CC(C)C)NC(=O)[C@H](CCCCN)NC(=O)[C@H](CCCCN)NC(C)=O)[C@@H](C)CC)C(=O)N[C@@H](CCCCN)C(=O)N[C@@H](Cc1ccc(O)cc1)C(=O)N[C@@H](CC(C)C)C(N)=O` is reported as 0% (horse erythrocytes 5 % v/v; 150 µM).
`Cc1c(COC(=O)[C@@H]2[C@H](/C=C(\Cl)C(F)(F)F)C2(C)C)cccc1-c1ccccc1` (racemic) gave an LD50 of 545 mg/kg (rat or mouse; oral).
`O=C(O)C(Cl)(Cl)Cl` — result for “dose of maximal hepatic oxidative damage”: 410 mg/kg/day (item: superoxide anion, lipid peroxidation, DNA damage; mouse, liver; 7.7 to 410 mg/kg/day, subchronic).
The Cmax ratio of `CC1(C)CCC(CN2CCN(c3ccc(C(=O)NS(=O)(=O)c4ccc(NCC5CCOCC5)c([N+](=O)[O-])c4)c(Oc4cnc5[nH]ccc5c4)c3)CC2)=C(c2ccc(Cl)cc2)C1` is reported as 0.42 (human patients; 400 mg once daily, steady state, added: ivosidenib 500 mg once daily 14 days; baseline: with over without ivosidenib).
For `Cn1c(N)nc2ncc(-c3ccccc3)cc21`, “DNA adduct level decrease” read 2 fold (hepatic Por knock-out mouse, extrahepatic tissues; dose not given; baseline: wild type over knock-out).
`ClC(Cl)(Cl)Cl`: “urinary microRNA levels” “increased” (rat, urine; oral, 2000 mg/kg, 24 h).
For `ClC=C(Cl)Cl`, the glutathione conjugation was 0.0026% (item: N-acetylcysteine conjugates; Wistar rat, male, urine; intraperitoneal, 400 mg/kg; baseline: dose).
